Results collected from several papers.
Every numbered part comes from another study and shows a few of its results, in no order.

Sample 1 — technique: RNA Bind-n-Seq; form: RNA; sample: in vitro; tested at: 365 nM; reference: no-protein control; reading: higher = stronger binding
Target: RNA binding protein fox-1 homolog 2, RRM domain, GST-SBP tag (RBFOX2, Homo sapiens, UniProt O43251-10, residues 100-194)
Notes: natural RNA segment, single round, ends assumed
Target sequence (chain): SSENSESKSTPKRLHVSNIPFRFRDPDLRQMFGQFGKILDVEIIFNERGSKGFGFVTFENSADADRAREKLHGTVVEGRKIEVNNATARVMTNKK
Under “RBNS enrichment (R)”, `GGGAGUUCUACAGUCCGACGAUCUCAGUUAAGCUCAAUAGCGAAUGUGGGACCCCCUCCUCUGACCUUCCCUGGGGGAGAAACCCUCUUGGCUAAUGGCUCUUCCCUGGCAUUAUCAAUAACCACCCGGGGACUGGAAUUCUCGGGUGCCAA` is recorded as 0.486.
Under “RBNS enrichment (R)”, `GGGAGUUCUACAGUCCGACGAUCGAGGCUCCCACCCACAGGGCUGUCUGUCACAAACCCACCUCUGUUGGGAGCUAUUGAGCCACCUGGGAUGAGAUGACACAAGGCACUCCUACCACUGAGCGCCUUUGCCAUGGAAUUCUCGGGUGCCAA` is recorded as 0.161.
`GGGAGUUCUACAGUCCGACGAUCGCGUGGCCACGGGGGCAGUGUGAGGACCUCCCUGUCUCCCGGCUCCCCUCCCAGGGGAGCCAGCUGCUUGACCUAGCUCUUUGGGCCUCUCCUGCCCUCUGCUCUGCCUGUGGAAUUCUCGGGUGCCAA`: “RBNS enrichment (R)” 0.909.
`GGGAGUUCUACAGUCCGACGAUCCCUCAGGGACCACUCCCCCAGCACUUUUGUGUUUGGGUGAGGGAUGUUGGACAGAGCCCAUUUUUAUGUGCUGCAGGUUGGGGGUUGUGCUAACACUUUUGCUCUUGGUUUGGAAUUCUCGGGUGCCAA` — result for “RBNS enrichment (R)”: 0.561.
`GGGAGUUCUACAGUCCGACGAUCAGGCCAAGUGGUUUGAAGUUAUUUUUAACCACAGAAGAGUUAAUUUUAUACAAAUAAAUGUAAAUGUAGUUAAAUGAUACAGUAUUUAAUAAAGUGUUCCUUUUCAAGUGUGGAAUUCUCGGGUGCCAA` — result for “RBNS enrichment (R)”: 0.612.
`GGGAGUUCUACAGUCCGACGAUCAACAAAUGCAAAUUUUCCCCGUUUGCCCUACGCCCCUUUUGGUACACCUAGAGGUUGAUUUCCUUUUUCAUCGAUGGUACUAUUUCUUAGUGUUUUAAAUUGGAACAUAUUGGAAUUCUCGGGUGCCAA`: “RBNS enrichment (R)” 0.385.
Under “RBNS enrichment (R)”, `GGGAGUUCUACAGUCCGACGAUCAUCACAUACUCAUUUUACUUGAAAUUAUGUCACUAGACAACUUAUAUUUUGGAGUCUUGAGAUUGUUUUUCUCUUUUCUUAUUAAAUAAUCUUUCUAUAAACCAGCACUAUGGAAUUCUCGGGUGCCAA` is recorded as 0.43.

Sample 2 — technique: aptamer microarray, sandwich; form: DNA with 2'F-ANA; sample: in vitro; tested at: 200 nM; with: Cy3 exosite-II aptamer, 400 nM; reading: higher = stronger binding; sequence: GGTTGGTGTGGTTGG
Target: Prothrombin, mature alpha-thrombin (F2, Homo sapiens, UniProt P00734)
Notes: whole 15-mer aptamer, many near background
Under “mean fluorescence intensity”, `2'F-ANA at 3 4 5 6 7 8 11 15` is recorded as 115 a.u.
Under “mean fluorescence intensity”, `2'F-ANA at 1 4 8 9 10 13 15` is recorded as 49 a.u.
For `2'F-ANA at 1 3 8 9 12`, “mean fluorescence intensity” read 653 a.u.
Under “mean fluorescence intensity”, `2'F-ANA at 2 4 7 8 10 12 13 15` is recorded as 109 a.u.
`2'F-ANA at 1 2 6 7 8 9 12`: “mean fluorescence intensity” 305 a.u.
Under “mean fluorescence intensity”, `2'F-ANA at 2 4 5 11` is recorded as 56.3 a.u.
Under “mean fluorescence intensity”, `2'F-ANA at 1 2 3 4 6 9 11 13 15` is recorded as 90.4 a.u.
For `2'F-ANA at 3 6 8 13 15`, “mean fluorescence intensity” read 808 a.u.
`2'F-ANA at 1 7 9 10 11 12 14`: “mean fluorescence intensity” 46.2 a.u.

Sample 3 — technique: protein binding microarray; form: double-stranded DNA, one strand shown; sample: in vitro; tested at: not given; reference: not given; reading: higher = stronger binding
Target: Histone acetyltransferase KAT6A, both winged helices, GST fusion (KAT6A, Homo sapiens, UniProt Q92794, residues 1-181)
Notes: 8-mer, flanks averaged, mean of 2 arrays, mostly near background
Target sequence (chain): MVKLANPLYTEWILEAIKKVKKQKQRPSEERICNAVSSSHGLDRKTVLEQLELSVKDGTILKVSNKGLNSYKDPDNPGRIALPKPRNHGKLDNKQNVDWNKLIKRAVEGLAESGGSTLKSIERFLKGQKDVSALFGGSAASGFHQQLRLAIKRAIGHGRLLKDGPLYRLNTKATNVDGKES
For `CAGGATCG`, the E-score was -0.0714.
For `ACATGATG`, the E-score was -0.093.
`AGGCTTGA` gave an E-score of -0.31.
The E-score of `CTGGGTGC` is reported as -0.0535.
`CCTAATAA` has an E-score of -0.0819.
`AGGTTCGG` has an E-score of -0.00199.
For `CCAGCGGG`, the E-score was 0.244.
`ATAGGAAG` has an E-score of -0.0458.
With `ATTTTCTG` the E-score was -0.164.

Single results of other studies
`PhoQ, residues 284 288 289 292 302 303 SSYNSA` gave a fold induction of 20.7 (PhoP, residues 12 14 15 18 19 MHTVL (Escherichia coli, UniProt P23836); Sort-seq, measured: YFP reporter; E. coli; PhoQ-PhoP variant library, with: 10 µM Mg2+; reference: high Mg2+ state, higher = stronger signaling).

A few entries again (sample 2):
For `2'F-ANA at 3 6 8 13 15`, “mean fluorescence intensity” read 808 a.u.
Under “mean fluorescence intensity”, `2'F-ANA at 1 4 8 9 10 13 15` is recorded as 49 a.u.
`2'F-ANA at 1 2 6 7 8 9 12`: “mean fluorescence intensity” 305 a.u.
